Experimental data collected from several papers.
Compare with care: the assays were run in different laboratories. ± gives the spread as reported. Values after ≈ are worked out from the molar mass of the structure shown.

Amino acid sequences for entries named in this document (tags omitted).
UniProt P51955, whole entry: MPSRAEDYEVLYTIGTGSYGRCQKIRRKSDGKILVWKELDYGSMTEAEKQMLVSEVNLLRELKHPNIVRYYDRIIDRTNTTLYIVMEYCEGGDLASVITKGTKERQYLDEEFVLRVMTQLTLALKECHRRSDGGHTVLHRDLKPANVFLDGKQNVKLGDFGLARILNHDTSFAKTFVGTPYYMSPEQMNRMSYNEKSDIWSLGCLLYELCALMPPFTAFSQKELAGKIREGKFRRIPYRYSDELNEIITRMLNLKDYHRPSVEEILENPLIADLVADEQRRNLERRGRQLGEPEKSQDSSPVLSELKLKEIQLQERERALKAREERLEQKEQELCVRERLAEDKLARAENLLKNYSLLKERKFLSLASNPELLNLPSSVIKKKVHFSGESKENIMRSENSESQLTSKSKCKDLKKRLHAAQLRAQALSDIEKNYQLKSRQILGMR
UniProt Q9UBE8, whole entry: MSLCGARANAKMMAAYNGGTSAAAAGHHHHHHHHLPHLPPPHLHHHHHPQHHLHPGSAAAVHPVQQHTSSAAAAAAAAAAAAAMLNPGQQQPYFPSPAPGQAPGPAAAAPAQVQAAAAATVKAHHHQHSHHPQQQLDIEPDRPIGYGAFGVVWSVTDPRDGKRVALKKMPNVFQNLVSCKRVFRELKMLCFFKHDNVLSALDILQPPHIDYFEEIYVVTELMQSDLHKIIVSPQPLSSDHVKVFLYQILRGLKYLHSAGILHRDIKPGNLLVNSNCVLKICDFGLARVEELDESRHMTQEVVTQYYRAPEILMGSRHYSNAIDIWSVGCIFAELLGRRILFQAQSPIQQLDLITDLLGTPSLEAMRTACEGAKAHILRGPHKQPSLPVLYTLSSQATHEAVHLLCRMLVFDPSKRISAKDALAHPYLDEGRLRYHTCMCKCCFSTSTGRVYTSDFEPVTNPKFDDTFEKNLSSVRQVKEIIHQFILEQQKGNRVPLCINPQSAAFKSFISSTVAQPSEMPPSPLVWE

`CCCCCCCCCCCCCCCC(=O)NCCCC[C@H](NC(=O)CCOCCOCCOCCOCCNC(=O)CNC(=O)[C@H](CO)NC(=O)CNC(=O)[C@@H](NC(=O)[C@H](CO)NC(=O)[C@H](CC(=O)O)NC(=O)[C@H](CC(C)C)NC(=O)[C@@H](NC(=O)[C@H](CCCCN)NC(=O)[C@H](CC(N)=O)NC(=O)[C@H](CO)NC(=O)[C@H](CCCNC(=N)N)NC(=O)[C@H](CCCNC(=N)N)NC(=O)[C@@H](NC(=O)[C@H](Cc1c[nH]c2ccccc12)NC(=O)[C@H](CCC(=O)O)NC(=O)[C@H](CCCCN)NC(=O)[C@H](CO)NC(=O)[C@H](CCC(=O)O)NC(=O)[C@H](CCC(=O)O)NC(=O)[C@H](CC(C)C)NC(=O)[C@H](CC(=O)O)NC(=O)[C@H](CO)NC(=O)[C@H](CCCCN)NC(=O)[C@@H](NC(=O)[C@H](CCCCN)NC(=O)[C@H](CC(N)=O)NC(=O)[C@H](CC(C)C)NC(=O)[C@@H](NC(=O)[C@@H](NC(=O)[C@H](CO)NC(=O)[C@@H](NC(=O)[C@H](CC(=O)O)NC(=O)[C@@H](NC(=O)[C@@H]1CCCN1C(=O)[C@H](CC(=O)O)NC(=O)[C@H](CC(C)C)NC(=O)[C@H](C)NC(=O)[C@@H](NC(C)=O)C(C)C)[C@@H](C)CC)[C@@H](C)CC)[C@@H](C)CC)C(C)C)[C@@H](C)CC)[C@@H](C)CC)[C@@H](C)CC)[C@@H](C)CC)C(N)=O` has a solubility of 34.8 ± 0.56 mg/mL (≈ 6.94 mM) (water).
With `CC#C/C(=N\OC[C@H]1COCCN1)c1ccc2ncnc(Nc3ccc(OCc4cccc(F)c4)c(Cl)c3)c2c1` the inhibition was 22.1% (NEK2 (Homo sapiens, UniProt P51955); kinase activity; 10 µM).
`CC[C@H](C)[C@@H]([C@@H](CC(=O)N1CCC[C@H]1[C@H](OC)[C@@H](C)C(=O)NCCc1ccc(OP(=O)([O-])[O-])cc1)OC)N(C)C(=O)[C@@H](NC(=O)[C@H](C(C)C)N(C)C)C(C)C.[K+].[K+]` has a solubility of over 120 mg/mL (distilled water; 23 °C).
With `O=C(Nc1ccccc1)c1cc([N+](=O)[O-])ccc1Cl` the AUC(0-inf) was 49 ng·h/mL (LC-MS/MS; Sprague-Dawley rat, male, plasma; intravenous, 2.5 mg/kg).
`CC[C@@H](C(N)=O)N1CCCC1=O` has a Cmax of 3630 ng/mL (LC-MS/MS; rat, paraoxon-induced status epilepticus, whole blood; oral, 50 mg/kg levetiracetam, with: atropine 5 mg/kg).
The remaining peptide of `C[C@H](NC(=O)[C@@H]1CCCN1C(=O)[C@H](CC(N)=O)NC(=O)[C@H](Cc1c[nH]c2ccccc12)NC(=O)[C@@H]1CSSC[C@H](NC(=O)CN)C(=O)N1)C(=O)N[C@H]1CSSC[C@@H](C(N)=O)NC(=O)[C@H](Cc2ccc(O)cc2)NC(=O)[C@H](Cc2c[nH]cn2)NC(=O)[C@H](CCCCN)NC(=O)CNC1=O` is reported as 0% (RP-HPLC; mouse serum 25% in water; 50 µM, 24 h, 37 °C).
For `CCN1CCN(Cc2ccc(NC(=O)c3ccc(C)c(/C=C/c4cnc5[nH]ccc5c4OC)c3)cc2C(F)(F)F)CC1`, “log2 fold change” read 0.289 (NLK (Homo sapiens, UniProt Q9UBE8); inhibitor; 5 µM; baseline: no inhibitor).
For `CC(C)C[C@H](NC(=O)[C@@H]1C[C@@H](O)CN1C(=O)[C@H](Cc1ccccc1)NC(=O)[C@H](CO)NC(=O)[C@H](C)NC(=O)[C@H](Cc1ccccc1)NC(=O)[C@@H](NC(=O)[C@H](CCC(=O)O)NC(=O)[C@H](Cc1c[nH]cn1)NC(=O)[C@@H](NC(=O)[C@@H](NC(=O)[C@H](CCC(N)=O)NC(=O)[C@H](C)NC(=O)[C@@H](N)CC(=O)O)[C@@H](C)O)C(C)C)C(C)C)C(=O)N[C@@H](CC(=O)O)C(=O)N[C@@H](CO)C(=O)N[C@@H](CC(=O)O)C(=O)NCC(=O)N[C@H]1CSSC[C@@H](C(N)=O)NC(=O)[C@H](Cc2ccc(O)cc2)NC(=O)[C@H](Cc2c[nH]cn2)NC(=O)[C@H](CCCCN)NC(=O)CNC(=O)[C@@H]2CSSC[C@H](NC1=O)C(=O)N[C@@H](Cc1c[nH]c3ccccc13)C(=O)N[C@@H](CC(N)=O)C(=O)N1CCC[C@H]1C(=O)N[C@@H](C)C(=O)N2`, the remaining peptide was 42.4 ± 0.82% (RP-HPLC; mouse serum 25% in water; 50 µM, 24 h, 37 °C).
`Cc1cn(CC(=O)N(CCNC(=O)CN(CCNC(=O)CN(CCNC(=O)CN(CCNC(=O)CN(CCNC(=O)CN(CCNC(=O)CN(CCNC(=O)CN(CCNC(=O)CN(CCNC(=O)CN(CCNC(=O)COCCOCCNC(=O)COCCOCCNC(=O)[C@H](CNC(=O)[C@H](CNC(=O)[C@H](CNC(=O)[C@H](CNC(=O)COCCOCCNC(=O)CN2CCN(CC(=O)O)CCN(CC(=O)O)CCN(CC(=O)O)CC2)NC(=O)COCCOCCNC(=O)CN2CCN(CC(=O)O)CCN(CC(=O)O)CCN(CC(=O)O)CC2)NC(=O)[C@H](CNC(=O)COCCOCCNC(=O)CN2CCN(CC(=O)O)CCN(CC(=O)O)CCN(CC(=O)O)CC2)NC(=O)COCCOCCNC(=O)CN2CCN(CC(=O)O)CCN(CC(=O)O)CCN(CC(=O)O)CC2)NC(=O)[C@H](CNC(=O)[C@H](CNC(=O)COCCOCCNC(=O)CN2CCN(CC(=O)O)CCN(CC(=O)O)CCN(CC(=O)O)CC2)NC(=O)COCCOCCNC(=O)CN2CCN(CC(=O)O)CCN(CC(=O)O)CCN(CC(=O)O)CC2)NC(=O)[C@H](CNC(=O)COCCOCCNC(=O)CN2CCN(CC(=O)O)CCN(CC(=O)O)CCN(CC(=O)O)CC2)NC(=O)COCCOCCNC(=O)CN2CCN(CC(=O)O)CCN(CC(=O)O)CCN(CC(=O)O)CC2)NC(=O)[C@H](CNC(=O)[C@H](CNC(=O)[C@H](CNC(=O)COCCOCCNC(=O)CN2CCN(CC(=O)O)CCN(CC(=O)O)CCN(CC(=O)O)CC2)NC(=O)COCCOCCNC(=O)CN2CCN(CC(=O)O)CCN(CC(=O)O)CCN(CC(=O)O)CC2)NC(=O)[C@H](CNC(=O)COCCOCCNC(=O)CN2CCN(CC(=O)O)CCN(CC(=O)O)CCN(CC(=O)O)CC2)NC(=O)COCCOCCNC(=O)CN2CCN(CC(=O)O)CCN(CC(=O)O)CCN(CC(=O)O)CC2)NC(=O)[C@H](CNC(=O)[C@H](CNC(=O)COCCOCCNC(=O)CN2CCN(CC(=O)O)CCN(CC(=O)O)CCN(CC(=O)O)CC2)NC(=O)COCCOCCNC(=O)CN2CCN(CC(=O)O)CCN(CC(=O)O)CCN(CC(=O)O)CC2)NC(=O)[C@H](CNC(=O)COCCOCCNC(=O)CN2CCN(CC(=O)O)CCN(CC(=O)O)CCN(CC(=O)O)CC2)NC(=O)COCCOCCNC(=O)CN2CCN(CC(=O)O)CCN(CC(=O)O)CCN(CC(=O)O)CC2)C(=O)Cn2cnc3c(=O)[nH]c(N)nc32)C(=O)Cn2ccc(N)nc2=O)C(=O)Cn2ccc(N)nc2=O)C(=O)Cn2cnc3c(N)ncnc32)C(=O)Cn2cc(C)c(=O)[nH]c2=O)C(=O)Cn2ccc(N)nc2=O)C(=O)Cn2cnc3c(N)ncnc32)C(=O)Cn2cnc3c(=O)[nH]c(N)nc32)C(=O)Cn2ccc(N)nc2=O)CC(=O)NCCN(CC(=O)NCCN(CC(=O)NCCOCCOCC(=O)N[C@@H]2CSSC[C@H](C(N)=O)NC(=O)[C@@H](CCCCN)NC(=O)[C@@H](CO)NC2=O)C(=O)Cn2ccc(N)nc2=O)C(=O)Cn2ccc(N)nc2=O)c(=O)[nH]c1=O` — result for breakdown fragments: “not detected” (RP-HPLC; mouse, urine; dose not given, 3.5 h).
The logP of `cisplatin` is reported as -2.19.
`CO[C@]12CC[C@@]3(C[C@@H]1[C@](C)(O)C(C)(C)C)[C@H]1Cc4ccc(O)c5c4[C@@]3(CCN1)[C@H]2O5`: “onset of sedation” 15 min (Swiss-Webster mouse; subcutaneous, 1 mg/kg).
For `CCCSc1nc(N[C@@H]2C[C@H]2c2ccc(F)c(F)c2)c2nnn([C@@H]3C[C@H](OCCO)[C@@H](O)[C@H]3O)c2n1`, the plasma concentration was 327 ± 372 ng/mL (STEMI patients, plasma; 180 mg loading dose, 6 h, with: morphine).
Under “apparent volume of distribution”, `Cc1cc(N(CCOS(C)(=O)=O)CCOS(C)(=O)=O)ccc1C(=O)O` is recorded as 6 L/kg (mouse; iv, 20 mg/kg).
With `CCCCCCCCCCCCCCCC(=O)NCCCC[C@H](NC(=O)CNC(=O)[C@H](CO)NC(=O)CNC(=O)[C@H](CCC(N)=O)NC(=O)[C@H](Cc1c[nH]cn1)NC(=O)[C@H](Cc1c[nH]c2ccccc12)NC(=O)[C@H](CC(N)=O)NC(=O)CNC(=O)[C@@H](NC(=O)[C@H](CO)NC(=O)[C@H](CC(=O)O)NC(=O)[C@H](CC(C)C)NC(=O)[C@@H](NC(=O)[C@H](CCCCN)NC(=O)[C@H](CC(N)=O)NC(=O)[C@H](CO)NC(=O)[C@H](CCCNC(=N)N)NC(=O)[C@H](CCCNC(=N)N)NC(=O)[C@@H](NC(=O)[C@H](Cc1c[nH]c2ccccc12)NC(=O)[C@H](CCC(=O)O)NC(=O)[C@H](CCCCN)NC(=O)[C@H](CO)NC(=O)[C@H](CCC(=O)O)NC(=O)[C@H](CCC(=O)O)NC(=O)[C@H](CC(C)C)NC(=O)[C@H](CC(=O)O)NC(=O)[C@H](CCCCN)NC(=O)[C@H](CCCCN)NC(=O)[C@@H](NC(=O)[C@H](CCCCN)NC(=O)[C@H](CC(N)=O)NC(=O)[C@H](CC(C)C)NC(=O)[C@@H](NC(=O)[C@H](CCC(=O)O)NC(=O)[C@H](CO)NC(=O)[C@@H](NC(=O)[C@H](CC(=O)O)NC(=O)[C@@H](NC(=O)[C@@H]1CCCN1C(=O)[C@H](CC(=O)O)NC(=O)[C@H](CC(C)C)NC(=O)[C@H](C)NC(=O)[C@@H](N)C(C)C)[C@@H](C)CC)[C@@H](C)CC)C(C)C)[C@@H](C)CC)[C@@H](C)CC)[C@@H](C)CC)[C@@H](C)CC)C(=O)O` the solubility was over 50 mg/mL (water).
For `C[C@H](Cc1ccc(O)c(O)c1)[C@@H](C)Cc1ccc(O)c(O)c1`, “amount in dermis” read 11.1 ± 1.94 µg (human skin; 3% solution, 8 h, skin UV-treated 10 min).
With `CCCCCCCCCCCCCCCC(=O)NCCCC[C@H](NC(=O)CNC(=O)[C@H](CO)NC(=O)CNC(=O)[C@H](CCC(N)=O)NC(=O)[C@H](Cc1c[nH]cn1)NC(=O)[C@H](Cc1c[nH]c2ccccc12)NC(=O)[C@H](CC(N)=O)NC(=O)CNC(=O)[C@@H](NC(=O)[C@H](CO)NC(=O)[C@H](CC(=O)O)NC(=O)[C@H](CC(C)C)NC(=O)[C@@H](NC(=O)[C@H](CCCCN)NC(=O)[C@H](CC(N)=O)NC(=O)[C@H](CO)NC(=O)[C@H](CCCNC(=N)N)NC(=O)[C@H](CCCNC(=N)N)NC(=O)[C@@H](NC(=O)[C@H](Cc1c[nH]c2ccccc12)NC(=O)[C@H](CCC(=O)O)NC(=O)[C@H](CCCCN)NC(=O)[C@H](CO)NC(=O)[C@H](CCC(=O)O)NC(=O)[C@H](CCC(=O)O)NC(=O)[C@H](CC(C)C)NC(=O)[C@H](CC(=O)O)NC(=O)[C@H](CO)NC(=O)[C@H](CCCCN)NC(=O)[C@@H](NC(=O)[C@H](CCCCN)NC(=O)[C@H](CC(N)=O)NC(=O)[C@H](CC(C)C)NC(=O)[C@@H](NC(=O)[C@@H](NC(=O)[C@H](CO)NC(=O)[C@@H](NC(=O)[C@H](CC(=O)O)NC(=O)[C@@H](NC(=O)[C@@H]1CCCN1C(=O)[C@H](CC(=O)O)NC(=O)[C@H](CC(C)C)NC(=O)[C@H](C)NC(=O)[C@@H](N)C(C)C)[C@@H](C)CC)[C@@H](C)CC)[C@@H](C)CC)C(C)C)[C@@H](C)CC)[C@@H](C)CC)[C@@H](C)CC)[C@@H](C)CC)C(=O)O` the solubility was 1.34 ± 0.12 mg/mL (≈ 0.251 mM) (PBS).
`C=C(C)[C@@H]1[C@H]2OC(=O)[C@@H]1[C@]1(O)C[C@H]3O[C@]34C(=O)O[C@H]2[C@]14C`: “time to disappearance” 180 min (LC-MS; mouse plasma).

Repeated from above:
For `CCN1CCN(Cc2ccc(NC(=O)c3ccc(C)c(/C=C/c4cnc5[nH]ccc5c4OC)c3)cc2C(F)(F)F)CC1`, “log2 fold change” read 0.289 (NLK (Homo sapiens, UniProt Q9UBE8); inhibitor; 5 µM; baseline: no inhibitor).
For `CCCSc1nc(N[C@@H]2C[C@H]2c2ccc(F)c(F)c2)c2nnn([C@@H]3C[C@H](OCCO)[C@@H](O)[C@H]3O)c2n1`, the plasma concentration was 327 ± 372 ng/mL (STEMI patients, plasma; 180 mg loading dose, 6 h, with: morphine).
`CO[C@]12CC[C@@]3(C[C@@H]1[C@](C)(O)C(C)(C)C)[C@H]1Cc4ccc(O)c5c4[C@@]3(CCN1)[C@H]2O5`: “onset of sedation” 15 min (Swiss-Webster mouse; subcutaneous, 1 mg/kg).
